Measured values of several laboratories.
Parts stem from different laboratories: compare values within a part only. Substitutions count along the parent as printed.
Chain of UniProt Q9UBF8 (whole entry, looked up): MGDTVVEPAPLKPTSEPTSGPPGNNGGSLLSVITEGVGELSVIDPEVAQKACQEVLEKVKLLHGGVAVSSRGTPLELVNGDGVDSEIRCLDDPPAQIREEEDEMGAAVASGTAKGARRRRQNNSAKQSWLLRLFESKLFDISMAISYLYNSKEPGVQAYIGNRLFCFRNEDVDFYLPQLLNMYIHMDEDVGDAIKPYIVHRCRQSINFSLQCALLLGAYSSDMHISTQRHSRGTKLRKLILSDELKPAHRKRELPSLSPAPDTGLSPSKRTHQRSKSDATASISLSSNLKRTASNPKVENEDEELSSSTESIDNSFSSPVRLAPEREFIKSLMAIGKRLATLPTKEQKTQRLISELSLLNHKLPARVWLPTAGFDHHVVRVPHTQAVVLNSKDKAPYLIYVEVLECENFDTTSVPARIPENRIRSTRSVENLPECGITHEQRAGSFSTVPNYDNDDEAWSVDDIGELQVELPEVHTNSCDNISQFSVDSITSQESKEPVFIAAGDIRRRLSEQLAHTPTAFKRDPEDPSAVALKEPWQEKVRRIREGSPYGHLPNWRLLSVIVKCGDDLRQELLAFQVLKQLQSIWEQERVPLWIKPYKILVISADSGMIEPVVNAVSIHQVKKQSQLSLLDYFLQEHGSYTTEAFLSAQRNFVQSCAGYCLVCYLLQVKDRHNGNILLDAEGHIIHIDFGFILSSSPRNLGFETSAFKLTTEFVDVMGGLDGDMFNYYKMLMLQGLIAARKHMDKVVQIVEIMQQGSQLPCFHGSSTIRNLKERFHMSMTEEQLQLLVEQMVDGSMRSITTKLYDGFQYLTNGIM
Chain of UniProt P53355 (whole entry, looked up): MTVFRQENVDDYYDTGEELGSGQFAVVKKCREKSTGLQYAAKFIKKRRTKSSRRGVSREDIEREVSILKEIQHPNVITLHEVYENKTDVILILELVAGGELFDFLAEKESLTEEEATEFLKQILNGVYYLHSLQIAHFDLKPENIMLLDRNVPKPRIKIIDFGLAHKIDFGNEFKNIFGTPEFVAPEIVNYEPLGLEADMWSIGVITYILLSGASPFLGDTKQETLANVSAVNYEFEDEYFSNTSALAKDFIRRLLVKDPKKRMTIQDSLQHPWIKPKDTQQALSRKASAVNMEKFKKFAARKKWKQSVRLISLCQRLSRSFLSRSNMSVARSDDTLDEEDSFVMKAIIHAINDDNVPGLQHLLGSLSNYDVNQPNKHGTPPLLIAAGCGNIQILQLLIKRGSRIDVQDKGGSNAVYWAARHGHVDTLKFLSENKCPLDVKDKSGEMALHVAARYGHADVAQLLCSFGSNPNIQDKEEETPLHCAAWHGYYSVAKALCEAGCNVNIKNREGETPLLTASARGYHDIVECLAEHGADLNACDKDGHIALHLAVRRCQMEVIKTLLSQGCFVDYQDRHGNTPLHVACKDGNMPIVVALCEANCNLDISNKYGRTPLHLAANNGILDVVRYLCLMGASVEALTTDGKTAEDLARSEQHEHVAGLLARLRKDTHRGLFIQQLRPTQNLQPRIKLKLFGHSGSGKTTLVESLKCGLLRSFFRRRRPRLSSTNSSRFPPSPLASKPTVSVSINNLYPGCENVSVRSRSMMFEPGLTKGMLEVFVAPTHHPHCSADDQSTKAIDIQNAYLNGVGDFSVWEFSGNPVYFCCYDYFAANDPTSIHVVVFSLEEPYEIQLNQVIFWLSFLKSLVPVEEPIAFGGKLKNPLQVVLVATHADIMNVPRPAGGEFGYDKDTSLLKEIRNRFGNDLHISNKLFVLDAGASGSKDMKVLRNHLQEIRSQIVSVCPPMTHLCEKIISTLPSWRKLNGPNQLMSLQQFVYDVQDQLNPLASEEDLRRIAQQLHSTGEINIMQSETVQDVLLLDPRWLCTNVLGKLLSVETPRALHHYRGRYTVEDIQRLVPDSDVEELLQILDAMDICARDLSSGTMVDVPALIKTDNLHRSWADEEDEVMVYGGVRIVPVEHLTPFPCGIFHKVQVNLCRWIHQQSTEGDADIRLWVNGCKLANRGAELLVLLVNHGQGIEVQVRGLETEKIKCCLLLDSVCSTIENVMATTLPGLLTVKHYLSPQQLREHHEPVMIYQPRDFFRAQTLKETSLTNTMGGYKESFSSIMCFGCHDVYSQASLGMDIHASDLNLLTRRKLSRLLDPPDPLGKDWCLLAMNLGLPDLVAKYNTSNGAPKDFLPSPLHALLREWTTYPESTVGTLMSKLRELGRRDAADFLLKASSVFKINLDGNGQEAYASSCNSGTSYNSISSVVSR
Chain of UniProt Q8IVH8 (whole entry, looked up): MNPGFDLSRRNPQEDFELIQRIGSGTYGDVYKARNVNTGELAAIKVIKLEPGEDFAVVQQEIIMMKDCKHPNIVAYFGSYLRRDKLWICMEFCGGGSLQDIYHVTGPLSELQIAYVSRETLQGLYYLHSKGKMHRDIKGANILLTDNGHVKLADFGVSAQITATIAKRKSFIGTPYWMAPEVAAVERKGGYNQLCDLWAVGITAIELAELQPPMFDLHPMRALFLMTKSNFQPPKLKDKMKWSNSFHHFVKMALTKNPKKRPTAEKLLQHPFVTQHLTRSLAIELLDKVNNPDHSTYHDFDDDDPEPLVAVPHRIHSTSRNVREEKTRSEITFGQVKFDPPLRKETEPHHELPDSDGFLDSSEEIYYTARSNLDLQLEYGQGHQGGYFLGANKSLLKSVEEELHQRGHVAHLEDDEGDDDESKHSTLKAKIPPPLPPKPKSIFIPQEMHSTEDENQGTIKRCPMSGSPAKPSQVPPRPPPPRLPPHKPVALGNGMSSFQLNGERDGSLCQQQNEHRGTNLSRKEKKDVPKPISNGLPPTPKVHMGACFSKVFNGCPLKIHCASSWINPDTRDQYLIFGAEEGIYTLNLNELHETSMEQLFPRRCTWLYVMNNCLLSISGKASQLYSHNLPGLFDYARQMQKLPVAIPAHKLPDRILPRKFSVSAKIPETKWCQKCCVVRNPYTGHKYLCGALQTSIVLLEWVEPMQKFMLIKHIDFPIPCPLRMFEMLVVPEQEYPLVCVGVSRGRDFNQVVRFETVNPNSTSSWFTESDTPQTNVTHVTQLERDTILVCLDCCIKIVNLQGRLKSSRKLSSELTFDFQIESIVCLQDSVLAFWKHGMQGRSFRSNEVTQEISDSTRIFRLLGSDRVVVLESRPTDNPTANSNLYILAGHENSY
Chain of UniProt P11802 (whole entry, looked up): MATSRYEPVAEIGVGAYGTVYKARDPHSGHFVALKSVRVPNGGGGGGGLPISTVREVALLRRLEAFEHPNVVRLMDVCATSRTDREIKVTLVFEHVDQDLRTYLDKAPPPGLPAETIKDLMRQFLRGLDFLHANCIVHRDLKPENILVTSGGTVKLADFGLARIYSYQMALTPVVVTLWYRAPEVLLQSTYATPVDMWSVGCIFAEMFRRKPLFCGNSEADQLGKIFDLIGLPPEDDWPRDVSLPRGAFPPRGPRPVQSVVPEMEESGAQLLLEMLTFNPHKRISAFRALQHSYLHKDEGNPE
Chain of UniProt Q8NFD2 (whole entry, looked up): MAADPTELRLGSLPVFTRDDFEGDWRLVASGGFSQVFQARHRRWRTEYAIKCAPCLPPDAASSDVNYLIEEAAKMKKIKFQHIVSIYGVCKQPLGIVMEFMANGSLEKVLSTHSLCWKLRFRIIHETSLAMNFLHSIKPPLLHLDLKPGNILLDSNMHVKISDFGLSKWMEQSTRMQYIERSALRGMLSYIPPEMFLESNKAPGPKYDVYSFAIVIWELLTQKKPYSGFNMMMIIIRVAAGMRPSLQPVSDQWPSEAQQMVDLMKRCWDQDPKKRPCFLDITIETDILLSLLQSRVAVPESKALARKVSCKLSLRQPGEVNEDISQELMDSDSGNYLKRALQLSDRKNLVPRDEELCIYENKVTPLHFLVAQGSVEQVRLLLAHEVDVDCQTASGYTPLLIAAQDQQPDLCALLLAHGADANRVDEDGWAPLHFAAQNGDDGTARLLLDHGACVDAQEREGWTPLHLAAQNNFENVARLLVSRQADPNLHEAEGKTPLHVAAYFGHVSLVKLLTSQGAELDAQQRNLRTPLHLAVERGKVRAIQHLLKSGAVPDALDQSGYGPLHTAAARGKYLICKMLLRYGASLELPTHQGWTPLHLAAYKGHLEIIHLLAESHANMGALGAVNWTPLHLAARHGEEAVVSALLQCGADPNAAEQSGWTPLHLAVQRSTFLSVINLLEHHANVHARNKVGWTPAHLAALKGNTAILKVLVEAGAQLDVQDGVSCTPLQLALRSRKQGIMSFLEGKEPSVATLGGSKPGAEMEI
Chain of UniProt Q9UIK4 (whole entry, looked up): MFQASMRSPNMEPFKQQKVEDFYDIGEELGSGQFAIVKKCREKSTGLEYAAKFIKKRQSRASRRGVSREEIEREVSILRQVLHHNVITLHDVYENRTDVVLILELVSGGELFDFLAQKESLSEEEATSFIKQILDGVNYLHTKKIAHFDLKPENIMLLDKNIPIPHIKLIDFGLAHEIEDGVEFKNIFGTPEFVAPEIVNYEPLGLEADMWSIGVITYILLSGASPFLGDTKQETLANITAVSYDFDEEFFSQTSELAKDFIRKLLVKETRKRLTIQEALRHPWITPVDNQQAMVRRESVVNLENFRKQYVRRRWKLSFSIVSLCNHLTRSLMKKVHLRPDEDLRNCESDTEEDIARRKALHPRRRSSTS

Sample 1 — cell line: A-375; tested at: 100 µM; time: 36 h
For `Cc1ccc(NC(=O)c2ccc(CN3CCN(C)CC3)cc2)cc1Nc1nc(-c2cccnc2)cs1`, the viability was 1.94%.
`C[C@H](CCC(=O)O)[C@H]1CC[C@H]2[C@@H]3[C@H](O)C[C@@H]4C[C@H](O)CC[C@]4(C)[C@H]3C[C@H](O)[C@]12C` has a viability of 102%.
`CN(C)CC[C@@H](c1ccc(Cl)cc1)c1ccccn1` has a viability of 96.1%.
`O=C(O)c1cc(-c2ccc(F)cc2F)ccc1O` has a viability of 92%.

Sample 2 — target: CCND3, cyclin fold, Cln2 fusion (human); method: yeast growth competition, sequencing; medium: yeast; notes: weak parent motif; baseline: not given; reading: higher = stronger binding
Starting sequence: RB1 docking peptide (human); PKPLKKLRFDIEG; partner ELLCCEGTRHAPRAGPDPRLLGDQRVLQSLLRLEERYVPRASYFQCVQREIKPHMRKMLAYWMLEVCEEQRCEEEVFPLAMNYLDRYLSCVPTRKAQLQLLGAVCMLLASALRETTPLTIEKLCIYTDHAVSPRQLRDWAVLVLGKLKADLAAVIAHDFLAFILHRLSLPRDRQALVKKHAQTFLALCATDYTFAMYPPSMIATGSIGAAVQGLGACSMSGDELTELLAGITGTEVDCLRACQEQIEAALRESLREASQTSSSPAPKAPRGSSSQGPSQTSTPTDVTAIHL
Under “normalised enrichment score”, `PKPLKKLEFDIEG [R8E]` is recorded as 0.0236.
For `PKPLKKLRFDNEG [I11N]`, “normalised enrichment score” read 0.204.
`PKKLKKLRFDIEG [P3K]`: “normalised enrichment score” 0.112.
For `PKPLKKLRFDIEW [G13W]`, “normalised enrichment score” read 0.113.
Under “normalised enrichment score”, `PKPLKKLRFCIEG [D10C]` is recorded as 0.0899.
`PKPLKKNRFDIEG [L7N]`: “normalised enrichment score” 0.163.
Under “normalised enrichment score”, `PKPLKNLRFDIEG [K6N]` is recorded as 0.125.
For `PKPLKKLRFDIQG [E12Q]`, “normalised enrichment score” read 0.112.

Sample 3 — observed: cell-free assay; method: competition with immobilised ligand; tested at: 1 µM
SMILES: CN([C@@H]1CCc2c(CC(=O)O)c3ccccc3n2C1)S(=O)(=O)c1ccc(F)cc1
PI4KB (Homo sapiens, UniProt Q9UBF8) — remaining binding: 100%.
The remaining binding was 100% (ANKK1 (Homo sapiens, UniProt Q8NFD2)).
The remaining binding was 88% (PIK3CB (Homo sapiens, UniProt P42338)).
It gave 100% for remaining binding (MAP4K3 (Homo sapiens, UniProt Q8IVH8)).
It gave 100% for remaining binding (CDK11B (Homo sapiens, UniProt P21127)).
It gave 100% for remaining binding (FLT3 (Homo sapiens, UniProt P36888, R834Q)).
For SYK (Homo sapiens, UniProt P43405): remaining binding read 100%.
The remaining binding was 87% (CDK4 (Homo sapiens, UniProt P11802)).
The remaining binding was 100% (DAPK1 (Homo sapiens, UniProt P53355)).
IGF1R (Homo sapiens, UniProt P08069) — remaining binding: 100%.
The remaining binding was 83% (Tyrosine-protein kinase JAK1, JH2 (JAK1, Homo sapiens, UniProt P23458)).
DAPK2 (Homo sapiens, UniProt Q9UIK4) — remaining binding: 100%.
PRKACB (Homo sapiens, UniProt P22694) — remaining binding: 100%.

Other studies, line by line — cell line: mouse MPNST tumor cells; method: high-content nuclear imaging; refers to: cell number; tested at: 10 µM; time: 12 h; notes: mean of 2 replicates; baseline: plate mean; reading: higher = more cells
The nuclei count of `Nc1nc(N)c2nc(-c3cccc(Cl)c3)c(N)nc2n1` is reported as -1.11 z-score.
`O=C(COCC(=O)Nc1ccc(Cl)cc1C(=O)O)Nc1cccc(-c2ccoc2)c1` gave a nuclei count of 2.35 z-score.

A few entries again (sample 2):
Under “normalised enrichment score”, `PKPLKNLRFDIEG [K6N]` is recorded as 0.125.
`PKPLKKNRFDIEG [L7N]`: “normalised enrichment score” 0.163.
For `PKPLKKLRFDIQG [E12Q]`, “normalised enrichment score” read 0.112.
